Assay results pooled from the literature.
Lines come from different studies, so protocols differ.

Compound | organism | assay | test system | setting | MIC
CC[C@H](C)[C@H](NC(=O)[C@H](CCCCN)NC(=O)[C@H](CCCCN)NC(=O)[C@H](Cc1ccccc1)NC(=O)[C@@H](NC(=O)[C@@H](NC(=O)[C@H](CCCNC(=N)N)NC(=O)[C@H](Cc1ccccc1)NC(=O)[C@@H](NC(=O)[C@H](CCCCN)NC(=O)[C@H](CCCCN)NC(=O)[C@@H](N)CCSC)[C@@H](C)CC)C(C)C)[C@@H](C)CC)C(=O)N[C@@H](CC(C)C)C(=O)N[C@@H](CCCCN)C(=O)N[C@@H](CCCNC(=N)N)C(=O)N[C@@H](CC(C)C)C(=O)N[C@H](C(=O)N[C@H](C(=O)O)C(C)C)[C@@H](C)CC | Staphylococcus aureus | broth microdilution | ATCC 25923 | compound pretreated with pepsin 1 h, added: pepsin 1 mg/mL | 16 µg/mL
CC[C@H](C)[C@H](NC(=O)[C@H](CC(C)C)NC(=O)CNC(=O)[C@H](CCCCN)NC(=O)[C@H](CC(C)C)NC(=O)[C@@H](NC(=O)[C@H](CCCCN)NC(=O)[C@@H](NC(=O)[C@@H](NC(=O)[C@H](CCC(N)=O)NC(=O)[C@H](CC(N)=O)NC(=O)[C@@H](NC(=O)[C@@H](NC(=O)[C@H](CC(=O)O)NC(=O)[C@H](CO)NC(=O)[C@@H](N)CCSC)[C@@H](C)CC)[C@@H](C)CC)[C@@H](C)CC)C(C)C)C(C)C)C(=O)N[C@@H](CC(=O)O)C(=O)N[C@@H](CCCCN)C(=O)N[C@@H](CC(C)C)C(=O)N[C@H](C(=O)N[C@@H](CCCCN)C(=O)N[C@@H](CCCCN)C(=O)O)[C@@H](C)O | Micrococcus luteus | broth microdilution | DSM 1790 |  | 20 µM
N=C(N)NCCC[C@H](NC(=O)CN)C(=O)N[C@@H](Cc1c[nH]c2ccccc12)C(=O)N[C@@H](CCCNC(=N)N)C(=O)N[C@@H](Cc1c[nH]c2ccccc12)C(=O)N[C@@H](Cc1c[nH]c2ccccc12)C(=O)N[C@@H](Cc1c[nH]c2ccccc12)C(=O)N[C@@H](CCCNC(=N)N)C(=O)N[C@@H](Cc1c[nH]c2ccccc12)C(=O)N[C@@H](CCCNC(=N)N)C(=O)N[C@@H](Cc1ccccc1)C(N)=O | Candida albicans | broth microdilution | CGMCC 2.209, RPMI 1640-MOPS | 48 h, 30 °C, added: NH4Cl 6 µM | 16 µM
CC[C@H](C)[C@H](NC(=O)[C@H](CC(N)=O)NC(=O)[C@H](CCCCN)NC(=O)[C@H](CC(=O)O)NC(=O)[C@H](Cc1ccc(O)cc1)NC(=O)[C@H](Cc1ccc(O)cc1)NC(=O)[C@H](Cc1ccc(O)cc1)NC(=O)[C@H](CCCNC(=N)N)NC(=O)[C@H](CC(C)C)NC(=O)CNC(=O)[C@H](CCCNC(=N)N)NC(=O)[C@@H](N)CO)C(=O)N[C@H](C(=O)N[C@@H](Cc1c[nH]cn1)C(=O)N[C@@H](CCCCN)C(=O)N[C@H](C(=O)N[C@@H](C)C(=O)NCC(=O)N[C@@H](CCCCN)C(=O)N[C@@H](CCCNC(=N)N)C(=O)N[C@@H](Cc1ccc(O)cc1)C(=O)N[C@H](C(=O)N[C@@H](Cc1ccc(O)cc1)C(=O)N[C@@H](CCCNC(=N)N)C(=O)N[C@@H](Cc1ccccc1)C(=O)N[C@H](C(=O)O)C(C)C)C(C)C)[C@@H](C)O)[C@@H](C)CC | Micrococcus luteus |  | NCTC 2665 |  | 12.5 µg/mL
N=C(N)NCCC[C@H](NC(=O)[C@H](Cc1c[nH]c2ccccc12)NC(=O)[C@H](CCCNC(=N)N)NC(=O)[C@H](Cc1c[nH]c2ccccc12)NC(=O)[C@H](Cc1c[nH]c2ccccc12)NC(=O)[C@H](Cc1c[nH]c2ccccc12)NC(=O)[C@H](CCCNC(=N)N)NC(=O)[C@H](Cc1c[nH]c2ccccc12)NC(=O)[C@H](CCCNC(=N)N)NC(=O)CN)C(N)=O | Candida albicans | broth microdilution | 14936, RPMI 1640-MOPS | 48 h, 30 °C | 4 µM
Cc1c2ccncc2c(C)c2c1[nH]c1ccccc12 | Candidozyma auris | inhibitor | 278 | 24 h | 128 µg/mL
C[C@H](NC(=O)[C@H](CCCNC(=N)N)NC(=O)[C@H](Cc1c[nH]c2ccccc12)NC(=O)[C@H](CCCNC(=N)N)NC(=O)[C@H](Cc1c[nH]c2ccccc12)NC(=O)[C@H](Cc1c[nH]c2ccccc12)NC(=O)[C@H](Cc1c[nH]c2ccccc12)NC(=O)[C@H](CCCNC(=N)N)NC(=O)[C@H](Cc1c[nH]c2ccccc12)NC(=O)[C@@H](N)CCCNC(=N)N)C(N)=O | Candida albicans | broth microdilution | CGMCC 2.209, RPMI 1640-MOPS | 48 h, 30 °C, added: KCl 4.5 mM | 4 µM
CC(C)(C)Oc1ccc(CC2NC(=O)C(C(=O)NC(C(=O)NC3C(=O)N4C3SC(C)(C)C4C(=O)O)c3ccccc3)=C2O)cc1 (stereo not drawn) | Escherichia coli | broth microdilution | isolate IU 356 A, KPC-3, VIM-1, TEM | added: clavulanic acid 6 µg/mL | > 200 µg/mL
CC[C@H](C)[C@H](NC(=O)[C@H](CCCCN)NC(=O)[C@@H](NC(=O)[C@H](Cc1ccc(O)cc1)NC(=O)[C@H](CCCCN)NC(=O)[C@H](CCCCN)NC(=O)CNC(=O)[C@H](CCCCN)NC(=O)[C@@H](NC(=O)[C@H](C)NC(=O)[C@H](CC(C)C)NC(=O)[C@H](Cc1c[nH]c2ccccc12)NC(=O)CNC(=O)[C@@H](NC(=O)[C@H](Cc1ccccc1)NC(=O)[C@H](CCCCN)NC(=O)[C@H](CC(C)C)NC(=O)[C@H](Cc1ccccc1)NC(=O)[C@H](C)NC(=O)CNC(=O)[C@@H](N)CCSC)C(C)C)[C@@H](C)O)C(C)C)C(=O)N[C@@H](C)C(=O)N[C@@H](Cc1c[nH]c2ccccc12)C(=O)N[C@@H](CC(=O)O)C(=O)N[C@@H](Cc1c[nH]cn1)C(=O)N[C@@H](CCCCN)C(=O)NCC(=O)N[C@H](C(=O)N[C@H](C(=O)N[C@@H](CCSC)C(=O)N[C@@H](CCCCN)C(=O)N[C@@H](Cc1c[nH]c2ccccc12)C(=O)N[C@@H](CC(C)C)C(=O)N[C@@H](CC(N)=O)C(=O)N[C@@H](C)C(=O)NCC(=O)N[C@@H](CCC(N)=O)C(=O)N[C@H](C(=O)N[C@@H](Cc1ccccc1)C(=O)N[C@H](C(=O)N[C@@H](Cc1c[nH]c2ccccc12)C(=O)N[C@H](C(=O)N[C@@H](Cc1ccc(O)cc1)C(=O)N[C@@H](CCC(=O)O)C(=O)N[C@@H](CCC(N)=O)C(=O)N[C@H](C(=O)N[C@@H](CCCCN)C(=O)N[C@@H](CCCCN)C(=O)N[C@@H](CC(C)C)C(=O)N[C@@H](Cc1c[nH]c2ccccc12)C(=O)N[C@H](C(=O)O)[C@@H](C)O)[C@@H](C)CC)C(C)C)[C@@H](C)O)[C@@H](C)O)[C@@H](C)CC)[C@@H](C)O | Staphylococcus pseudintermedius | broth microdilution |  | 37 °C | 3.9 µg/mL
CC1(C)SC2C(NC(=O)C(NC(=O)C3=C(O)C(Cc4ccc(F)cc4)NC3=O)c3ccccc3)C(=O)N2C1C(=O)O (stereo not drawn) | Escherichia coli |  | ATCC 35218, low-level TEM-1 | without clavulanic acid | > 200 µg/mL
CC[C@H](C)[C@H](NC(=O)[C@H](CCCNC(=N)N)NC(=O)[C@H](Cc1c[nH]c2ccccc12)NC(=O)[C@H](CCCNC(=N)N)NC(=O)[C@H](Cc1c[nH]c2ccccc12)NC(=O)[C@H](Cc1c[nH]c2ccccc12)NC(=O)[C@H](Cc1c[nH]c2ccccc12)NC(=O)[C@H](CCCNC(=N)N)NC(=O)[C@H](Cc1c[nH]c2ccccc12)NC(=O)[C@H](CCCNC(=N)N)NC(=O)CN)C(N)=O | Candida albicans | broth microdilution | 14936, RPMI 1640-MOPS | 48 h, 30 °C | 8 µM
O=C(CO/N=c1\cc2n(-c3ccc(Cl)cc3)c3ccccc3nc-2cc1Nc1ccc(Cl)cc1)NCc1ccc2c(c1)CCO2 | Neisseria gonorrhoeae | bacterial growth | 1130991, multidrug-resistant | 24 h | > 30 µM
CC(=O)N1CCN(c2ccc(OCC3COC(Cn4ccnc4)(c4ccc(Cl)cc4Cl)O3)cc2)CC1 (stereo not drawn) | Candida tropicalis | broth microdilution | CGMCC 2.192, RPMI 1640-MOPS | 48 h, 30 °C | 4 µM
CC(C)C[C@@H](NC(=O)[C@H](C)NC(=O)CNC(=O)[C@@H](NC=O)C(C)C)C(=O)N[C@@H](C)C(=O)N[C@@H](C(=O)N[C@H](C(=O)N[C@@H](C(=O)N[C@@H](Cc1c[nH]c2ccccc12)C(=O)N[C@H](CC(C)C)C(=O)N[C@@H](Cc1ccc2[nH]ccc2c1)C(=O)N[C@H](CC(C)C)C(=O)N[C@@H](Cc1c[nH]c2ccccc12)C(=O)N[C@@H](C(=O)N[C@@H](Cc1c[nH]c2ccccc12)C(=O)NCCO)C(C)C)[C@H](C)O)C(C)C)C(C)C | Streptococcus agalactiae | broth microdilution | JCM 5671 |  | 4.3 µM
CC[C@H](C)[C@H](NC(=O)[C@H](CCCNC(=N)N)NC(=O)[C@H](Cc1c[nH]c2ccccc12)NC(=O)[C@H](CCCNC(=N)N)NC(=O)[C@H](Cc1c[nH]c2ccccc12)NC(=O)[C@H](Cc1c[nH]c2ccccc12)NC(=O)[C@H](Cc1c[nH]c2ccccc12)NC(=O)[C@H](CCCNC(=N)N)NC(=O)[C@H](Cc1c[nH]c2ccccc12)NC(=O)[C@@H](N)CCCNC(=N)N)C(N)=O | Candida albicans | broth microdilution | CGMCC 2.209, RPMI 1640-MOPS | 48 h, 30 °C, added: CaCl2 2 mM | 32 µM
CC(C)(C)OCC1NC(=O)C(C(=O)NC(C(=O)NC2C(=O)N3C2SC(C)(C)C3C(=O)O)c2ccccc2)=C1O (stereo not drawn) | Escherichia coli | broth microdilution | ATCC 35218, low-level TEM-1 | added: clavulanic acid 6 µg/mL | 100 µg/mL
CCCCCCCCCC(=O)N[C@@H](Cc1c[nH]c2ccccc12)C(=O)N[C@H](CC(N)=O)C(=O)N[C@@H](CC(=O)O)C(=O)N[C@@H]1C(=O)NCC(=O)N[C@@H](CCCN)C(=O)N[C@@H](CC(=O)O)C(=O)N[C@H](C)C(=O)N[C@@H](CC(=O)O)C(=O)NCC(=O)N[C@H](CO)C(=O)N[C@@H]([C@H](C)CC(=O)O)C(=O)N[C@@H](CC(=O)c2ccccc2N)C(=O)O[C@@H]1C | Micrococcus luteus | broth microdilution | ATCC 7468 | 24 h | 15.4 µM
Clc1ccc(Nc2cc3nc4ccccc4n(-c4ccc(Cl)cc4)c-3c/c2=N\OCc2ccccc2)cc1 | Neisseria gonorrhoeae | bacterial growth | 1130991, multidrug-resistant | 24 h | > 30 µM
CC1(C)SC2C(NC(=O)C(NC(=O)C3=C(O)C4CCCN4C3=O)c3ccccc3)C(=O)N2C1C(=O)O (stereo not drawn) | Escherichia coli | broth microdilution | Keio mutant JW2142-1 |  | 25 µg/mL
CC[C@H](C)[C@H](NC(=O)CN)C(=O)NCC(=O)N[C@@H](C)C(=O)N[C@H](C(=O)N[C@@H](CC(C)C)C(=O)N[C@@H](CCCCN)C(=O)N[C@H](C(=O)N[C@@H](CC(C)C)C(=O)N[C@H](C(=O)N[C@H](C(=O)NCC(=O)N[C@@H](CC(C)C)C(=O)N1CCC[C@H]1C(=O)N[C@@H](C)C(=O)N[C@@H](CC(C)C)C(=O)N[C@H](C(=O)N[C@@H](CO)C(=O)N[C@@H](Cc1c[nH]c2ccccc12)C(=O)N[C@H](C(=O)N[C@@H](CCCCN)C(=O)N[C@@H](CCCNC(=N)N)C(=O)N[C@@H](CCCCN)C(=O)N[C@@H](CCCNC(=N)N)C(=O)N[C@@H](CCC(N)=O)C(=O)N[C@@H](CCC(N)=O)C(N)=O)[C@@H](C)CC)[C@@H](C)CC)[C@@H](C)O)[C@@H](C)O)C(C)C)C(C)C | Candida tropicalis | broth microdilution | CGMCC 2.192, RPMI 1640-MOPS | 48 h, 30 °C | 4 µM
CCOC(=O)CNC(=O)CO/N=c1\cc2n(-c3ccc(Cl)cc3)c3ccccc3nc-2cc1Nc1ccc(Cl)cc1 | Neisseria gonorrhoeae | bacterial growth | 700825, streptomycin-resistant | 24 h | > 30 µM

Repeated from above:
Compound | organism | assay | test system | setting | MIC
CC[C@H](C)[C@H](NC(=O)[C@H](CC(C)C)NC(=O)CNC(=O)[C@H](CCCCN)NC(=O)[C@H](CC(C)C)NC(=O)[C@@H](NC(=O)[C@H](CCCCN)NC(=O)[C@@H](NC(=O)[C@@H](NC(=O)[C@H](CCC(N)=O)NC(=O)[C@H](CC(N)=O)NC(=O)[C@@H](NC(=O)[C@@H](NC(=O)[C@H](CC(=O)O)NC(=O)[C@H](CO)NC(=O)[C@@H](N)CCSC)[C@@H](C)CC)[C@@H](C)CC)[C@@H](C)CC)C(C)C)C(C)C)C(=O)N[C@@H](CC(=O)O)C(=O)N[C@@H](CCCCN)C(=O)N[C@@H](CC(C)C)C(=O)N[C@H](C(=O)N[C@@H](CCCCN)C(=O)N[C@@H](CCCCN)C(=O)O)[C@@H](C)O | Micrococcus luteus | broth microdilution | DSM 1790 |  | 20 µM
CC[C@H](C)[C@H](NC(=O)[C@H](CCCNC(=N)N)NC(=O)[C@H](Cc1c[nH]c2ccccc12)NC(=O)[C@H](CCCNC(=N)N)NC(=O)[C@H](Cc1c[nH]c2ccccc12)NC(=O)[C@H](Cc1c[nH]c2ccccc12)NC(=O)[C@H](Cc1c[nH]c2ccccc12)NC(=O)[C@H](CCCNC(=N)N)NC(=O)[C@H](Cc1c[nH]c2ccccc12)NC(=O)[C@@H](N)CCCNC(=N)N)C(N)=O | Candida albicans | broth microdilution | CGMCC 2.209, RPMI 1640-MOPS | 48 h, 30 °C, added: CaCl2 2 mM | 32 µM
